Assay results of several laboratories.
Parts stem from different laboratories: compare values within a part only. Positions count from the first letter of the parent shown.

Set 1 — method: protein binding microarray; molecule type: double-stranded DNA, one strand shown; sample: in vitro; concentration: not given; reference: not given; reading: higher = stronger binding; quantity: E-score
Target: Histone acetyltransferase KAT6A, winged helix 1, GST fusion (KAT6A, Homo sapiens, UniProt Q92794, residues 1-85)
Setting: 8-mer, flanks averaged, mean of 2 arrays, mostly near background
Residues (chain): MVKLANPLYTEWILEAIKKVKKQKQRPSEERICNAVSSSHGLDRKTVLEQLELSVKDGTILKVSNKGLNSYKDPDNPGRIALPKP
ATAGTGTG: -0.0302
ACGTAGTG: -0.00177
AAGGAGCG: 0.186
AGAAGCCG: 0.297
GACGACAC: 0.0105
ATTTTTTC: -0.0347
CACGGTAC: 0.281
CAAAGAAG: -0.25
GATTCGGA: -0.00127
CTGACTCA: -0.0795
TACTAATA: -0.174
GCTCGTAC: 0.0328
ATTCGGGC: 0.0492
TGATATCA: -0.255
CGGATGCA: 0.00662
GGATGGGA: -0.274
GGCATTAC: 0.159
TATGTTCA: -0.179

Set 2 — method: RNA Bind-n-Seq; molecule type: RNA; sample: in vitro; concentration: 365 nM; reference: no-protein control; reading: higher = stronger binding; quantity: RBNS enrichment (R)
Target: RNA binding protein fox-1 homolog 2, RRM domain, GST-SBP tag (RBFOX2, Homo sapiens, UniProt O43251-10, residues 100-194)
Setting: natural RNA segment, single round, ends assumed
Target sequence (chain): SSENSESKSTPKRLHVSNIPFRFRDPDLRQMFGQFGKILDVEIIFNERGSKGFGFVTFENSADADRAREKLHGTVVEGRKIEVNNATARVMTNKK
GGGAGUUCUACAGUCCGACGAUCGAUGCUUUAAAGGAGACAGGAAUAUAAUUAUUGAGUAUAGAAGCAUCAGAAACUAUUAAAAUUAAGGCUAAGUGGCUAUCGGGGUAAAUAGUGCCAGAUUACUAUUGGUGUGGAAUUCUCGGGUGCCAA: 1.18
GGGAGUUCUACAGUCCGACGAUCUCUUGUGCACCUGCAUCAGAAAACCAUAGGACAACAAGGUGGCUAGGCAGUUAUCACCCCUCUGCUGCCGUAUUCAUCACCCAGGCUCUCUUACAAGUUCCUUGUUAAUGUGGAAUUCUCGGGUGCCAA: 0.417
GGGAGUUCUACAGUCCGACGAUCUCGGAGCAUGGUGUUUUCAUUCCCCCUUCCUAGUGAACCACAGGUUUUAGCAUUGUCUUGUUCUGUCCCUUCCACUUCUAACUCCACUGGCUCCAUGAUUCUCUGAGUGGUGGAAUUCUCGGGUGCCAA: 9.63
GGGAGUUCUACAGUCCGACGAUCUCAAGACUAGUCCACGAACGAGACCCGCCUUUUCUACACAGGAUCCAAGGUCACGAGAAGCAGCCAGAGUGCCCCGCCUCCGCCGGCUCUGGUCUGCCAUUCGCCAGUGCUGGAAUUCUCGGGUGCCAA: 0.335
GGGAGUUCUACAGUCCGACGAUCACCCCCAUCCCACUGCUCUCUCUGAGCUGCAGCUGUAUGUAUAGCAGAUUAGGGGCUCCCUGGUUAGAGGGUUGUAAGGUACAGGGUGCUGUCCAGCCUCUGAGUACCAUUGGAAUUCUCGGGUGCCAA: 0.205
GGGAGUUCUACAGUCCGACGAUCAAGCCACAAGCCUGAACGAGCCUAAAAGCAUGGCGAGUUGGUGGAACCAGCGCCCCAUAGGCUAAGAUCUAUCAUUUACAGGUAGAAGUGGGGCCCGCACUCAGAACUGUUGGAAUUCUCGGGUGCCAA: 0.538
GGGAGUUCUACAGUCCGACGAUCCAUUAUUUUGACACUUUUAAUUUUCAUUUAACAAUGGAUUAGAAAAAUAUUUUGGUCUAGCCACUAAACAUAAUGACUGAAAAAAAUUAUUAUUAUAAAUCACCAAUAUAUGGAAUUCUCGGGUGCCAA: 0.579
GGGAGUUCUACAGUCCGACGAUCUGCGACUUCUCAGGCAGGUGAGAGGGGUAGUCCUUACACUGUCUAGCAUAAACGCCUUCCGGAAGGACCUGCAGCUCCAGAGACCACCUCCUGAGCACCAAGACCUCUUCUGGAAUUCUCGGGUGCCAA: 0.243
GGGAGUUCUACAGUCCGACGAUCAGCCCUUCAAGUGCACUGAGCUAUGUGACUCGGAUGGUCUUUCACACGGCACAUUUGGACAUUUCCAGAACUACCAUGAGAUGGUUUAGACGGGAAUUCAUGCAAAUGAGUGGAAUUCUCGGGUGCCAA: 0.463
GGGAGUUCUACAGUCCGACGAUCAAUAUGGAAAUCACUGCCAGAGACAGUCUAUUUUCUUUUAAUUUGUUACUACUUAGUCACAAACCCCACAUUAUUCCAGUUUGGAAUUACUUAUUAAGGAGAAUUGGAAAUGGAAUUCUCGGGUGCCAA: 0.511
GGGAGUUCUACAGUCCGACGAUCAUCUCAUUUCUCAAAAAAAAAAAAUGAUGCCUGUGUUUAUGUACAAUUUAAAUGAUUACAGAGUGCUCCUGCCCAAGGAUCUCAUAGCCUGGAGUGAGGGUCAGAACUGAUGGAAUUCUCGGGUGCCAA: 1.3
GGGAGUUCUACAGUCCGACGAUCUGGGCCCUGUACCCCCAACUGCGAAUGCCAGACUUAAGACUGCCUUACAGAGUAAUCUUUGAUUUCUCCAUCUGAUGUGGCCCUGGGAGCUGGAGCAAGAGUCCACCUUUUGGAAUUCUCGGGUGCCAA: 0.803

Set 3 — method: RNA Bind-n-Seq; molecule type: RNA; sample: in vitro; concentration: 1 µM; setting: whole 134-nt RNA, ends assumed; added: 150 mM KCl; reference: input library; reading: higher = stronger binding; quantity: log2 enrichment
Target: Ras GTPase-activating protein-binding protein 1, C-terminal RGG region (G3BP1, Homo sapiens, UniProt Q13283)
UniProt Q13283, sequence (whole entry, looked up): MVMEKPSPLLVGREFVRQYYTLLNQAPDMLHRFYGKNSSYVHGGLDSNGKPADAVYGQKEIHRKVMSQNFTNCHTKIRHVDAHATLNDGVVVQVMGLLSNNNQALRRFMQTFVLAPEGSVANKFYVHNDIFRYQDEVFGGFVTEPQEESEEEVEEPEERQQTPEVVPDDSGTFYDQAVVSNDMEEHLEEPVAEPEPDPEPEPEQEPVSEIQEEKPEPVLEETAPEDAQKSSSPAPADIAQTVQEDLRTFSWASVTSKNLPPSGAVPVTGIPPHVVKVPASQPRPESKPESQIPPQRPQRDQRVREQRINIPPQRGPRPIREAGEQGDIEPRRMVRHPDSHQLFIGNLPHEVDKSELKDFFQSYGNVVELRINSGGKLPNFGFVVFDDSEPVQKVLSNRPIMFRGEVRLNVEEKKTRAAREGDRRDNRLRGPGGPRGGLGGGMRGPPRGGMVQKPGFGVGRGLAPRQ
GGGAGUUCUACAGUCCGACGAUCUGGGAGGUGGAUUCUGUUUAUUUUUUUAGCUCAUUUCCAGGGGUGGGAAUUUUUUUUUAAUAUGUGUCAUGAAUAAAGUUGUUUUUGAAAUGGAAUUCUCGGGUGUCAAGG: 3.18
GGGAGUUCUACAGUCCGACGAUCGCAGGAAGUAAAAACAAAUGGAAAUGCUUCGGAUAGUGGCAGGGGUGGGGGUUGCUAAGGAAAGGGUGGUAUGGGAGUGGGUAAAGAGUUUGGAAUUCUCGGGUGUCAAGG: 2.2
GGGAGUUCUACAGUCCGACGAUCUCAAGUCCUGUGCUACACAUCGUAUGUACCGAAUCGGUUUGGUUUUUUUGGUGGAAAGUAUUAUGUUACGCCGUUCGGAUCUGCACUUCCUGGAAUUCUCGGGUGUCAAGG: -0.994
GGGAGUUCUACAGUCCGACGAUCUUCCCGGAGAACUCGAGUAAAUCUAGAAGUUGCCAGGUUUCAGAACUAUUUAUUCCUUUAAUGUGCAGACGAAGGGAACGUCAUCGUUUGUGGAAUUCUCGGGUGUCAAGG: -0.164
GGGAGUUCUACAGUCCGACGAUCUGGGAGGUGGAUUUUGUUUAUUUUUUUAGCUCAUUUCCAGGGGUGGGAAUUUUUUUUUAAUAUGUGUCAUCAAUAAAGUUGUUUUUGAAAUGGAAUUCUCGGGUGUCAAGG: 3.37
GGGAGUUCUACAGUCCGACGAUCUGGCCCUGGUGGCAUGCGGGGAGGAAGAGGUGGCCUCAUGGAUCGUGGUGGUCCCGGUGAAAUGUUCAGAGGUGGCCGUGGUGGAGACAGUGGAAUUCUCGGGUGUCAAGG: 1.61
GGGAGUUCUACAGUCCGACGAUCUGGGAGGUGGAUUUUGUUUAUUUUUUUAGCUCAUUUCCAGGGGUGGGAAUAUUUUUUUAAUAUGUGUCAUGAAUAAAGUUGUUUUUGAAAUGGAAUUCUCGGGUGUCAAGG: 3.68
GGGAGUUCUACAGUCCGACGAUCUUCAACAACUAGUACUGCUUCAAAUUAUCCAGAUGUGUUAACAAGGCCUUCUCUUCAUCGGAGCCAUCUGAAUUUUUCCAUGUUGGAAUCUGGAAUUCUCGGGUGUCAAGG: 0.0782
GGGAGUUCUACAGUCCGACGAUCCACAGACAACACGCACCCACACAGACACAGCGGGAAGGGGUUGGGAUGGGGACAGGGUGCACAGCAGGGCGGGGUAGGACCCCAGCCCCUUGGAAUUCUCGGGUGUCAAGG: -0.154
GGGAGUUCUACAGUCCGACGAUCCUCAAGUCCUGUGCUACACAUCGUAUGUACCGAAUCGGGAGGGUUUGGGAGGGAAAGUAUUAUGUUACGCCGUUCGGAUCUGCACUUCCAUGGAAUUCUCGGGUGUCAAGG: 2.07

Set 4 — method: DHFR PCA, deep sequencing; sample: yeast; added: (+)-ABA 1.4 µM; reference: wild-type fitted maximum; reading: higher = stronger binding; quantity: relative binding score
Target: ABI1, truncated, D143A, DHFR fusion (Arabidopsis thaliana)
Setting: methotrexate growth selection, single substitutions
Starting sequence: PYL1, truncated, DHFR fusion (Arabidopsis thaliana); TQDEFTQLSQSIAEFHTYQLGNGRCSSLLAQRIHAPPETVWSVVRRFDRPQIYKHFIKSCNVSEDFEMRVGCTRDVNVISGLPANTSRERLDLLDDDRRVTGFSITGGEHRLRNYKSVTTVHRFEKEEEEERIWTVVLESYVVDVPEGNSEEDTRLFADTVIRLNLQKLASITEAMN
D97G: 39.5%
S63V: 36.9%
H34K: 48.7%
I79G: 0.39%
E131W: 23.4%
Q2R: 61.6%
H110F: 3.79%
E129V: 47.5%
I172H: -3.32%
D96S: 1.58%
I57M: 3.41%
H34N: 57.3%
G108W: -4%
K168D: -5.7%
S171I: 22.8%
P37T: 18.8%
G71T: 3.34%

Repeated from above (set 3):
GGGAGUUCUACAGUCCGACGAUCGCAGGAAGUAAAAACAAAUGGAAAUGCUUCGGAUAGUGGCAGGGGUGGGGGUUGCUAAGGAAAGGGUGGUAUGGGAGUGGGUAAAGAGUUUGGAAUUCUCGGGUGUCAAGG: 2.2
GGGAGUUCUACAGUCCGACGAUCUCAAGUCCUGUGCUACACAUCGUAUGUACCGAAUCGGUUUGGUUUUUUUGGUGGAAAGUAUUAUGUUACGCCGUUCGGAUCUGCACUUCCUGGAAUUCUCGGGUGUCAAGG: -0.994
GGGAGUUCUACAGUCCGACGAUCUUCCCGGAGAACUCGAGUAAAUCUAGAAGUUGCCAGGUUUCAGAACUAUUUAUUCCUUUAAUGUGCAGACGAAGGGAACGUCAUCGUUUGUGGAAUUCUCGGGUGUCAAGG: -0.164
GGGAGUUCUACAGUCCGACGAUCUGGGAGGUGGAUUUUGUUUAUUUUUUUAGCUCAUUUCCAGGGGUGGGAAUUUUUUUUUAAUAUGUGUCAUCAAUAAAGUUGUUUUUGAAAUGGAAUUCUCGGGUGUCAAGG: 3.37
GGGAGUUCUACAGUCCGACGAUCUGGCCCUGGUGGCAUGCGGGGAGGAAGAGGUGGCCUCAUGGAUCGUGGUGGUCCCGGUGAAAUGUUCAGAGGUGGCCGUGGUGGAGACAGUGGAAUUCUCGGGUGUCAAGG: 1.61
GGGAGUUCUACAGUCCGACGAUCUGGGAGGUGGAUUUUGUUUAUUUUUUUAGCUCAUUUCCAGGGGUGGGAAUAUUUUUUUAAUAUGUGUCAUGAAUAAAGUUGUUUUUGAAAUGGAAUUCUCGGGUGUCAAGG: 3.68
